Assay results gathered from unrelated publications.
Protocols differ between the studies behind these lines. “And” joins repeats or separate records; there may be more than shown. ± gives the spread as reported.
Chain of UniProt O95382 (whole entry, looked up): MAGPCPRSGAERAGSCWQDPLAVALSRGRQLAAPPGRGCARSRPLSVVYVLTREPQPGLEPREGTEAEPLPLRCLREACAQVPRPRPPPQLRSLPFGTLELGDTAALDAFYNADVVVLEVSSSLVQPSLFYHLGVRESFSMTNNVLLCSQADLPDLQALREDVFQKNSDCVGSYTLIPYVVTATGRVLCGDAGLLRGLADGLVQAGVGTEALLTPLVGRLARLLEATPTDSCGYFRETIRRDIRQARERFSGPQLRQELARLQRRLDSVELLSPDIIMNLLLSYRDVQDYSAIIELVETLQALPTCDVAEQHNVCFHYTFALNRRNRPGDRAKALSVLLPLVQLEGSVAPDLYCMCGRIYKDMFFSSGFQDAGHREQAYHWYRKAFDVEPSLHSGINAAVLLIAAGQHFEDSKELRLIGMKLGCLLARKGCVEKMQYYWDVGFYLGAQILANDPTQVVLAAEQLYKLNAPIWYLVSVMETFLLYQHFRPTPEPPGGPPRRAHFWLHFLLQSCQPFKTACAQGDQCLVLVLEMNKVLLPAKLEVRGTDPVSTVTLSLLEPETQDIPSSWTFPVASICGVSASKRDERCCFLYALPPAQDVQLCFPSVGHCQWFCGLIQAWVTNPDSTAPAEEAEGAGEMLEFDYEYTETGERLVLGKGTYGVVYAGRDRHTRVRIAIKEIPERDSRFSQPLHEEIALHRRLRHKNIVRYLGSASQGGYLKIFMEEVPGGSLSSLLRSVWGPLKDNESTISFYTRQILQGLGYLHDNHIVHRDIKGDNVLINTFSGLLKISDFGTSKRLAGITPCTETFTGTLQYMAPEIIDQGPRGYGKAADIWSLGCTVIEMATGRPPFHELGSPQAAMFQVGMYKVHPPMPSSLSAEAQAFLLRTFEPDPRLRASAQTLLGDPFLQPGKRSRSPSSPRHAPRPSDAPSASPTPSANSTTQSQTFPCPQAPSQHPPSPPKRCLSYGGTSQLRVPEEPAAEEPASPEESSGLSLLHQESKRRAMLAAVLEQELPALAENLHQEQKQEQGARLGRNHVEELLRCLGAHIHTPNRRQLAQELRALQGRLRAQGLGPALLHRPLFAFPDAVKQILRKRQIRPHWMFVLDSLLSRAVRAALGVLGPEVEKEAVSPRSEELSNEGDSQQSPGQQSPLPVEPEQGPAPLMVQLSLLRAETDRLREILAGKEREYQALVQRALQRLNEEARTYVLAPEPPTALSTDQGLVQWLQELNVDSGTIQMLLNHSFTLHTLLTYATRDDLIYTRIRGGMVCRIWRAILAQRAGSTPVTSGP

Structure (SMILES) | target or system | test | test system | conditions | scale | quantity | result
COc1ccccc1-c1n[nH]c2nc(NC3CCN(C(=O)Cc4ccc(F)cc4F)CC3)ncc12 | – | bead binding, competition bead pull-down, measured: LINJ.30.0080 | Leishmania donovani axenic amastigote extract | 10 µM | reference: vehicle | relative abundance | 0.11
O=C1NC2(CC2)COc2ncc(F)cc2[C@H]2COCCN2c2ccn3ncc1c3n2 | – | – | Sprague-Dawley rat, female, blood | oral, 2.5 mg/kg/day, 4 weeks, end of recovery, subacute toxicity | – | monocyte percentage | 1.5 ± 0.6%
N=C(N)NCCC[C@@H](NC(=O)[C@H](N)Cc1c[nH]c2ccccc12)C(=O)N[C@H](CCCCN)C(=O)N[C@H](Cc1c[nH]c2ccccc12)C(=O)N[C@H](CCCNC(=N)N)C(=O)N[C@H](CCCCN)C(=O)N[C@H](Cc1c[nH]c2ccccc12)C(=O)N[C@H](CCCNC(=N)N)C(=O)N[C@H](CCCCN)C(=O)N[C@H](Cc1c[nH]c2ccccc12)C(=O)N[C@H](CCCNC(=N)N)C(=O)N[C@H](CCCCN)C(N)=O | – | – | mouse, liver | intravenous, 30 mg/kg single dose, 7 days | – | organ index | 4.8
CC(=O)NCCCC[C@@H]1NC(=O)[C@H](Cc2c[nH]c3c(C)cccc23)NC(=O)[C@H]([C@@H](C)O)NC(=O)[C@H](CC(N)=O)NC(=O)[C@@H](NC(C)=O)C(C)(C)SSC(C)(C)[C@@H](C(=O)N[C@@H](Cc2ccc(OCCN)cc2)C(=O)N[C@@H](Cc2ccc3ccccc3c2)C(=O)NC2(C(=O)N[C@@H](CCC(=O)O)C(=O)N[C@@H](CC(N)=O)C(=O)N[C@@H](Cc3cccnc3)C(=O)N(C)CC(N)=O)CCOCC2)NC1=O | – | – | cynomolgus monkey, sacroiliac ligament | intravenous, 1 mg/kg | – | tissue to plasma ratio | 96%
CCOc1ccccc1-n1c(CN2CCNCC2)nc2ccccc2c1=O | – | – | C57BL/6 mouse, male, plasma | intravenous, 1 mg/kg | – | clearance | 35.8 mL/min/kg
Cc1nc2cccc(OCC(C)(C)C(=O)NC(C)C)c2c(N)c1C(=O)[O-].[Na+] | Escherichia coli | reverse mutation, plate incorporation | WP2 uvrA | 0.32 mg/plate, without S9 | – | revertant colonies | 29 ± 3 colonies/plate
CC1(C)C(=O)N(c2ccc(C#N)c(C(F)(F)F)c2)C(=S)N1c1ccc(C(N)=O)c(F)c1 | – | – | healthy male humans, plasma | oral, 40 mg, fasting, soft capsules | – | median Tmax | 240 h
Cc1cc(C(=O)Nc2nc3cccc(C)c3n2[C@H]2CCCCN(C(=O)/C=C/CN(C)C)C2)ccn1 | Trypanosoma brucei | cell growth, Alamar Blue | 2T1 overexpressing Tb927.7.6220 | – | reference: parental 2T1 | EC50 fold shift | 0.5 fold and 0.71 fold
COc1cnc2cccc(N3CCc4c(cc(Cn5ccnc5)cc4-c4cn(C)nc4C(F)(F)F)C3=O)c2c1 | – | – | BALB/c nude mice, MV4-11 xenograft | intraperitoneal, 100 mg/kg, day 24 | – | body weight | 24.2 g and 21.6 g and 23.5 g and 25.3 g and 25.9 g and 24 g
CCCC[C@@H]1NC(=O)[C@H](Cc2ccc(O)cc2)NC(=O)[C@@H]2CCCN2C(=O)[C@H](CC(=O)O)NC(=O)[C@H](C)NC(=O)[C@H](Cc2ccccc2)NC(=O)[C@@H]2CSCCC(=O)N3CN(CN(C3)C(=O)CCSC[C@@H](C(=O)N[C@@H](C)C(N)=O)NC1=O)C(=O)CCSC[C@H](NC(C)=O)C(=O)N[C@@H](CC(C)(C)C)C(=O)N1CCC[C@H]1C(=O)N[C@@H](CCC(=O)O)C(=O)N[C@H](CCCCNC(=O)CCc1cn(CCOCCOCCOCCN(CCOCCOCCOCCC(=O)N[C@H]3CSCCC(=O)N4CN5CN(C4)C(=O)CCSC[C@H](NC(=O)[C@@H](CCC(=O)O)NC(=O)[C@H](Cc4cccc6ccccc46)NC(=O)[C@@H]4CCCN4C3=O)C(=O)N[C@@H](CCSC)C(=O)N[C@@H](CCCCNC(=N)N)C(=O)N[C@@H](CCC(=O)O)C(=O)N[C@@H](Cc3c[nH]c4ccccc34)C(=O)N[C@@H](CO)C(=O)N[C@@H]([C@@H](C)O)C(=O)N3CCC[C@H]3C(=O)N3C[C@H](O)C[C@H]3C(=O)N[C@@H](Cc3c[nH]c4ccccc34)C(=O)N[C@H](C(N)=O)CSCCC5=O)CCOCCOCCOCCn3cc(CCC(=O)NCCCC[C@H]4NC(=O)[C@H](CCC(=O)O)NC(=O)[C@@H]5CCCN5C(=O)[C@H](CC(C)(C)C)NC(=O)[C@@H](NC(C)=O)CSCCC(=O)N5CN6CN(C5)C(=O)CCSC[C@H](NC(=O)[C@H](Cc5ccc(O)cc5)NC(=O)[C@@H]5CCCN5C4=O)C(=O)N[C@@H](Cc4ccccc4)C(=O)N[C@@H](C)C(=O)N[C@@H](CC(=O)O)C(=O)N4CCC[C@H]4C(=O)N[C@@H](Cc4ccc(O)cc4)C(=O)N[C@@H](CCCC)C(=O)N[C@H](C(=O)N[C@@H](C)C(N)=O)CSCCC6=O)nn3)nn1)C(=O)N1CCC[C@H]1C(=O)N[C@@H](Cc1ccc(O)cc1)C(=O)N2 | – | – | rat, plasma | intravenous, 2 mg/kg | – | Vd | 1 L/kg
CC(C)(C)C(=O)OCOP(=O)(OCOC(=O)C(C)(C)C)C1CCCN(O)C1=O (stereo not drawn) | A549 | – | – | – | – | Log10GI50 | -6.2 log M
CC[C@H](C)[C@H](NC(=O)[C@H](CCCCN)NC(=O)CNC(=O)[C@H](CC(C)C)NC(=O)[C@H](Cc1ccccc1)NC(=O)[C@H](CCCCN)NC(=O)[C@H](CO)NC(=O)[C@H](Cc1ccccc1)NC(=O)[C@H](Cc1c[nH]c2ccccc12)NC(=O)[C@H](CCC(N)=O)NC(=O)[C@@H](NC(=O)[C@H](Cc1ccccc1)NC(=O)CCCCCNC(=O)CN1CCN(CC(=O)O)CCN(CC(=O)O)CCN(CC(=O)O)CC1)C(C)C)C(=O)N[C@@H](CCC(=O)O)C(=O)N1CCC[C@H]1C(=O)N[C@@H](CC(=O)O)C(=O)N[C@H](C(=O)N[C@@H](CO)C(=O)N[C@@H](CCC(N)=O)C(=O)N[C@H](C(=O)N[C@@H](CCC(N)=O)C(=O)N[C@@H](CC(=O)O)C(=O)N1CCC[C@H]1C(=O)N[C@@H](CC(N)=O)C(=O)N[C@@H](CC(=O)O)C(=O)N[C@@H](CCC(N)=O)C(=O)N[C@@H](Cc1ccc(O)cc1)C(=O)N[C@@H](CCC(=O)O)C(=O)N1CCC[C@H]1C(=O)N[C@@H](Cc1ccccc1)C(=O)O)C(C)C)C(C)C [copper-64 labelled] | – | – | GZMB-/- mice, CT26 tumour-bearing, large intestine | 2 h, vehicle-treated | – | tissue uptake | 3.78 ± 1.6 %ID/g
COc1ccccc1-c1n[nH]c2nc(N[C@H]3CC[C@H](NS(=O)(=O)CC(C)C)CC3)ncc12 | – | bead binding, competition bead pull-down, measured: LMJF.35.0370 | Leishmania donovani extract | 10 µM | reference: vehicle | relative abundance | 0.91
CN(C)[C@H]1C[C@@]23CC[C@@]4(O2)C(=CC[C@]2(C)[C@@H](c5ccc6ccncc6c5)CC[C@H]24)C=C3[C@@H](O)[C@@H]1O | MAP3K6 (Homo sapiens, UniProt O95382) | ATP probe labelling, inhibitor, KiNativ profiling | – | 1 µM | – | inhibition | -0.2%
C#Cc1c(F)ccc2cc(O)cc(-c3ncc4c(N5CC6CCC(C5)N6C(=O)OC(C)OC(=O)COCCOC)nc(OC[C@@]56CCCN5C[C@H](F)C6)nc4c3F)c12 (stereo partly drawn) | – | chemical stability | simulated intestinal fluid | 1 µM, 30 min | – | compound remaining | 71.3%
CSCC[C@H](NC(=O)CNC(=O)[C@H](CCCCN)NC(=O)[C@H](CC(C)C)NC(=O)[C@@H]1CCCN1C(=O)[C@H](CO)NC(=O)[C@H](Cc1c[nH]cn1)NC(=O)[C@H](Cc1c[nH]c2ccccc12)NC(=O)[C@H](CCCNC(=N)N)NC(=O)[C@H](CC(C)C)NC(=O)[C@H](CCCNC(=N)N)NC(=O)[C@H](Cc1c[nH]c2ccccc12)NC(=O)[C@H](CS)NC(=O)CCCCCNC(=O)CN1CCN(CC(=O)O)CCN(CC(=O)O)CCN(CC(=O)O)CC1)C(=O)O [copper-64 labelled] | – | – | C57BL/6J mice, B16-F10 tumour, blood | intravenous, 1.85 MBq, 2 h | – | tissue uptake | 1.68 %ID/g
CC(C)N1CCCCC1C(=O)NC(Cc1ccc(-c2ccccc2)cc1)B(O)O (stereo not drawn) | – | – | rat, plasma | intravenous, 1 mg/kg | – | clearance | 14.5 mL/min/kg
CC(C)(c1cc(Br)c(O)c(Br)c1)c1cc(Br)c(O)c(Br)c1 | – | ultrafiltration | cow milk whey | 200 nM nominal in whole milk | – | final permeate concentration | 6.54 nM

Repeated from above:
Structure (SMILES) | target or system | test | test system | conditions | scale | quantity | result
CC[C@H](C)[C@H](NC(=O)[C@H](CCCCN)NC(=O)CNC(=O)[C@H](CC(C)C)NC(=O)[C@H](Cc1ccccc1)NC(=O)[C@H](CCCCN)NC(=O)[C@H](CO)NC(=O)[C@H](Cc1ccccc1)NC(=O)[C@H](Cc1c[nH]c2ccccc12)NC(=O)[C@H](CCC(N)=O)NC(=O)[C@@H](NC(=O)[C@H](Cc1ccccc1)NC(=O)CCCCCNC(=O)CN1CCN(CC(=O)O)CCN(CC(=O)O)CCN(CC(=O)O)CC1)C(C)C)C(=O)N[C@@H](CCC(=O)O)C(=O)N1CCC[C@H]1C(=O)N[C@@H](CC(=O)O)C(=O)N[C@H](C(=O)N[C@@H](CO)C(=O)N[C@@H](CCC(N)=O)C(=O)N[C@H](C(=O)N[C@@H](CCC(N)=O)C(=O)N[C@@H](CC(=O)O)C(=O)N1CCC[C@H]1C(=O)N[C@@H](CC(N)=O)C(=O)N[C@@H](CC(=O)O)C(=O)N[C@@H](CCC(N)=O)C(=O)N[C@@H](Cc1ccc(O)cc1)C(=O)N[C@@H](CCC(=O)O)C(=O)N1CCC[C@H]1C(=O)N[C@@H](Cc1ccccc1)C(=O)O)C(C)C)C(C)C [copper-64 labelled] | – | – | GZMB-/- mice, CT26 tumour-bearing, large intestine | 2 h, vehicle-treated | – | tissue uptake | 3.78 ± 1.6 %ID/g
COc1ccccc1-c1n[nH]c2nc(N[C@H]3CC[C@H](NS(=O)(=O)CC(C)C)CC3)ncc12 | – | bead binding, competition bead pull-down, measured: LMJF.35.0370 | Leishmania donovani extract | 10 µM | reference: vehicle | relative abundance | 0.91
